Results from different studies.
A part holds a random share of what one study measured. “And” joins repeats or separate records; there may be more than shown.
Sequence of UniProt P42336 (whole entry, unmodified, looked up): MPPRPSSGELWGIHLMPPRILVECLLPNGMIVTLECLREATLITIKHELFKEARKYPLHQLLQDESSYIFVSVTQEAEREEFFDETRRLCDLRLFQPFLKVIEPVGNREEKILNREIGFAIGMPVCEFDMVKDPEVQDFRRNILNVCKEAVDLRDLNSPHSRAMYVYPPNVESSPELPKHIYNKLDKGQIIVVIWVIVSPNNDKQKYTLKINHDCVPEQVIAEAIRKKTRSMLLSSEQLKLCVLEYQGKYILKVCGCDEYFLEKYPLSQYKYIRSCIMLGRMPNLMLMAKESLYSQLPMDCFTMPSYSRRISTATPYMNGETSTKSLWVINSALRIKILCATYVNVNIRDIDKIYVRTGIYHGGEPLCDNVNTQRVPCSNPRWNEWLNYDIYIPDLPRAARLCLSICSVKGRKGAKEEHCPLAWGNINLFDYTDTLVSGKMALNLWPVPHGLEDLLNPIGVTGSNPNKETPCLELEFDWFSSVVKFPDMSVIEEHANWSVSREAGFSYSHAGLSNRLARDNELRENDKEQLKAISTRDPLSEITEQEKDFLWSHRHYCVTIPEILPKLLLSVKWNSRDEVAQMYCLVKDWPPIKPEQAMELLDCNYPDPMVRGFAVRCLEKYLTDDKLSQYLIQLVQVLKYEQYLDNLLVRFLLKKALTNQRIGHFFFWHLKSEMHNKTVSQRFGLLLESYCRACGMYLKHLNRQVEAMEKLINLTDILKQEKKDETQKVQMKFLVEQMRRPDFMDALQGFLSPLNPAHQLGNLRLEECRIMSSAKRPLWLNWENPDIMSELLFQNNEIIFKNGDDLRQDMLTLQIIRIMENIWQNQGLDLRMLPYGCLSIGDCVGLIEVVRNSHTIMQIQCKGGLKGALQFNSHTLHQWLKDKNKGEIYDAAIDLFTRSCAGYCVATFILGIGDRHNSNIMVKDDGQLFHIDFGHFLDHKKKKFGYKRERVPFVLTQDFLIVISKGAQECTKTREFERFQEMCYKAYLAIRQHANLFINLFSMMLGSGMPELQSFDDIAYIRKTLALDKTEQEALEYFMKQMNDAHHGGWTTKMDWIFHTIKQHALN
Sequence of UniProt Q05397 (whole entry, looked up): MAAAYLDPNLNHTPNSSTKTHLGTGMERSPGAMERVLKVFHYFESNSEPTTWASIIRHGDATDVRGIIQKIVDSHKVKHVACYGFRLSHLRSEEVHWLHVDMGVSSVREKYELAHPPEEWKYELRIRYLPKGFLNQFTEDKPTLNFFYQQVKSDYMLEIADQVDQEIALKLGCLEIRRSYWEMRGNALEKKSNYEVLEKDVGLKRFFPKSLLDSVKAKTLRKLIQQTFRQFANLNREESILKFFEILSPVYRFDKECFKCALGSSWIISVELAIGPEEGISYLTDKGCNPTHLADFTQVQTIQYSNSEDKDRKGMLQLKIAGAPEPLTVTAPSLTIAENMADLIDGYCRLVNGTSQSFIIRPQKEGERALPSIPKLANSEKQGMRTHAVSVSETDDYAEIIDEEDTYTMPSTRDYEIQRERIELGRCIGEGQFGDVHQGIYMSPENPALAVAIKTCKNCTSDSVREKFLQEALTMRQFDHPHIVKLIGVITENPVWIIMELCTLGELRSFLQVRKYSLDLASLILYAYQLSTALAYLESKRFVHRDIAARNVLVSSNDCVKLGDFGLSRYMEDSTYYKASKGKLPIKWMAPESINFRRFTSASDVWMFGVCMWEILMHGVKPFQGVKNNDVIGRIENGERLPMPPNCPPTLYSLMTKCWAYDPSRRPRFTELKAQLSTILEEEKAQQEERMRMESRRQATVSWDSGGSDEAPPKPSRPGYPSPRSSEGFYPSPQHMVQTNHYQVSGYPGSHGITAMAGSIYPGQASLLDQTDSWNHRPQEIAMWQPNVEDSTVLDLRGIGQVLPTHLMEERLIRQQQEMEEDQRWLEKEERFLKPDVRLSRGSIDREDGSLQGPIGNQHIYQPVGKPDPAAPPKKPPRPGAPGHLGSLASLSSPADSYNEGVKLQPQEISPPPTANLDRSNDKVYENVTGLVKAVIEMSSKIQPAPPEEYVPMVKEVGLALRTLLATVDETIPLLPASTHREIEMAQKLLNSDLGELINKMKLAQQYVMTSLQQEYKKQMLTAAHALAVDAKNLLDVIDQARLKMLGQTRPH
Sequence of UniProt P50613 (whole entry, looked up): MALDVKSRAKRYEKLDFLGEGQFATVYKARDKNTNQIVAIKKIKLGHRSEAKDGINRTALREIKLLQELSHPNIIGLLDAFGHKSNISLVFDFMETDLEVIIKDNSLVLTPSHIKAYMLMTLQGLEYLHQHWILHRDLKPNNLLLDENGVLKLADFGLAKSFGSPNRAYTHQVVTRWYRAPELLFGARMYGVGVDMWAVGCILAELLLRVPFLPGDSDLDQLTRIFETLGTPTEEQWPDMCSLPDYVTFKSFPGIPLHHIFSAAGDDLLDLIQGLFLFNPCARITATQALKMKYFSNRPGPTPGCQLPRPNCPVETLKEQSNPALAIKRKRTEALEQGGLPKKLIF
Sequence of UniProt O14757 (whole entry, looked up): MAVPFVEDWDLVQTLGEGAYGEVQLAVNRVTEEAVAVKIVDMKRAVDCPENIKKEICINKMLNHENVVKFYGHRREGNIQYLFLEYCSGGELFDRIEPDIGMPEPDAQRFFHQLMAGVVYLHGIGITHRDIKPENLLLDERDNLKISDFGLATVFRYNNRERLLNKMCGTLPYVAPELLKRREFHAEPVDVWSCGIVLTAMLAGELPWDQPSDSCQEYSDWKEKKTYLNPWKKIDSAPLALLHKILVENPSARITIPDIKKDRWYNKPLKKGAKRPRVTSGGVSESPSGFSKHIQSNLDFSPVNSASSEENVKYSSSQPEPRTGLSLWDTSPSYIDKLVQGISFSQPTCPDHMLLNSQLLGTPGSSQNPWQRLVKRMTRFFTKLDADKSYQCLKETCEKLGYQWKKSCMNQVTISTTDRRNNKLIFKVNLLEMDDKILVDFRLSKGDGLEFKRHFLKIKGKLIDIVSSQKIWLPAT
Sequence of UniProt O95835 (whole entry, looked up): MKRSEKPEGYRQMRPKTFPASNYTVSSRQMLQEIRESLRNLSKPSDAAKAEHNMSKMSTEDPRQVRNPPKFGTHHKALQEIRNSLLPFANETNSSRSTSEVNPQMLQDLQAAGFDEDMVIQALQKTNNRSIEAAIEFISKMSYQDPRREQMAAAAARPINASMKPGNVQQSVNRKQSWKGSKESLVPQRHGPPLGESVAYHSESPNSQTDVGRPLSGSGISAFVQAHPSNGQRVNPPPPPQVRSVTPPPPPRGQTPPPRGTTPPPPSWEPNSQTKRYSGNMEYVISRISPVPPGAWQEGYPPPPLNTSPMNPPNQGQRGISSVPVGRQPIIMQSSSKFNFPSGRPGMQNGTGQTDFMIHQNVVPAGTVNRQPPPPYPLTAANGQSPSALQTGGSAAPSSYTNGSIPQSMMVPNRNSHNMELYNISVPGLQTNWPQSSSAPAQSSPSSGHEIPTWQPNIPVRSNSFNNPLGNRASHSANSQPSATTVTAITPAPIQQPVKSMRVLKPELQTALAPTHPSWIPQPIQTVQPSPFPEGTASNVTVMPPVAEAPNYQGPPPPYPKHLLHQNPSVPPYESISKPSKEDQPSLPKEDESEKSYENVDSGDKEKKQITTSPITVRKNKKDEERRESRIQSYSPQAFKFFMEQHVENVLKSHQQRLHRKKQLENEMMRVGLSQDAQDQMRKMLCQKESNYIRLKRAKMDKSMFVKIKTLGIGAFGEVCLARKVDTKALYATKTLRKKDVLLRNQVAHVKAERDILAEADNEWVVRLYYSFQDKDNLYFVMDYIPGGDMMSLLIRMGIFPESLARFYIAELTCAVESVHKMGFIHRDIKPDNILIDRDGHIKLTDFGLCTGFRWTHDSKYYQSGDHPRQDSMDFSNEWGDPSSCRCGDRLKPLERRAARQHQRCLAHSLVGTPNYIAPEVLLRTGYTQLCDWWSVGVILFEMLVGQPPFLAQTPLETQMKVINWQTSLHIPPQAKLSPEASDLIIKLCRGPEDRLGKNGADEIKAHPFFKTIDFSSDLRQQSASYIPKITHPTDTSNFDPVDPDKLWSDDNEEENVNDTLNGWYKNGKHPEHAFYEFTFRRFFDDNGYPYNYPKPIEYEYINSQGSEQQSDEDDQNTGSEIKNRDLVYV

Set 1
SMILES: O=C1CCC(N2Cc3cc(C4CCN(Cc5ccccc5)CC4)ccc3C2=O)C(=O)N1 (stereo not shown)
Medium: plasma
Endpoint: MRT(0-inf)
male CD-1 mouse; oral, 3 mg/kg: 1.83 h
male ICR mice; intravenous, 1.0 mg/kg: 3.17 h and 3.96 h
Sprague Dawley rat, male; intravenous, 1.0 mg/kg: 4.84 h
male ICR mice; oral, 3.0 mg/kg: 1.84 h and 1.98 h

Set 2
SMILES: CC(=O)N1CCC(c2ccc(C(=O)NC3=NCCN3)cc2C(F)(F)F)CC1
Effect on: cell-free assay
Technique: competition with immobilised ligand
Tested at: 1 µM
Endpoint: remaining binding
MAP4K1 (Homo sapiens, UniProt Q92918): 100%
CHEK1 (Homo sapiens, UniProt O14757): 100%
BRAF (Homo sapiens, UniProt P15056, V600E): 100%
PTK2 (Homo sapiens, UniProt Q05397): 17%
CSNK1G1 (Homo sapiens, UniProt Q9HCP0): 95%
PRPF4B (Homo sapiens, UniProt Q13523): 100%
PIK3CA (Homo sapiens, UniProt P42336, H1047L): 100%
PRKACA (Homo sapiens, UniProt P17612): 100%
EPHA2 (Homo sapiens, UniProt P29317): 94%
CDK7 (Homo sapiens, UniProt P50613): 89%
EGFR (Homo sapiens, UniProt P00533, G719C): 100%
MERTK (Homo sapiens, UniProt Q12866): 100%
GRK2 (Homo sapiens, UniProt P25098): 77%
FLT3 (Homo sapiens, UniProt P36888, N841I): 94%
PNCK (Homo sapiens, UniProt Q6P2M8): 88%
MAPK3 (Homo sapiens, UniProt P27361): 100%
CDK9 (Homo sapiens, UniProt P50750): 84%
PIK3CA (Homo sapiens, UniProt P42336, E545K): 87%
LATS1 (Homo sapiens, UniProt O95835): 93%

Set 3
SMILES: CC(C)n1cnc(-c2ccc(F)cc2)c1-c1ncc(C(=O)Nc2ccc(N3CCN(C)CC3)cc2)[nH]1
Technique: phase 2a trial
Host: idiopathic pulmonary fibrosis patients
Endpoint: patients with respiratory failure
60 mg once daily, grade 4 emergent event: 0%
60 mg once daily, grade 5 emergent event: 0%
30 mg once daily, grade 3 emergent event: 0%
30 mg once daily, grade 1 emergent event: 0%
60 mg once daily, grade 2 emergent event: 0%
30 mg once daily, grade 2 emergent event: 0%

Set 4
Target: Macrophage colony-stimulating factor 1 receptor (CSF1R, Homo sapiens, UniProt P07333)
Sequence of UniProt P07333 (whole entry, looked up): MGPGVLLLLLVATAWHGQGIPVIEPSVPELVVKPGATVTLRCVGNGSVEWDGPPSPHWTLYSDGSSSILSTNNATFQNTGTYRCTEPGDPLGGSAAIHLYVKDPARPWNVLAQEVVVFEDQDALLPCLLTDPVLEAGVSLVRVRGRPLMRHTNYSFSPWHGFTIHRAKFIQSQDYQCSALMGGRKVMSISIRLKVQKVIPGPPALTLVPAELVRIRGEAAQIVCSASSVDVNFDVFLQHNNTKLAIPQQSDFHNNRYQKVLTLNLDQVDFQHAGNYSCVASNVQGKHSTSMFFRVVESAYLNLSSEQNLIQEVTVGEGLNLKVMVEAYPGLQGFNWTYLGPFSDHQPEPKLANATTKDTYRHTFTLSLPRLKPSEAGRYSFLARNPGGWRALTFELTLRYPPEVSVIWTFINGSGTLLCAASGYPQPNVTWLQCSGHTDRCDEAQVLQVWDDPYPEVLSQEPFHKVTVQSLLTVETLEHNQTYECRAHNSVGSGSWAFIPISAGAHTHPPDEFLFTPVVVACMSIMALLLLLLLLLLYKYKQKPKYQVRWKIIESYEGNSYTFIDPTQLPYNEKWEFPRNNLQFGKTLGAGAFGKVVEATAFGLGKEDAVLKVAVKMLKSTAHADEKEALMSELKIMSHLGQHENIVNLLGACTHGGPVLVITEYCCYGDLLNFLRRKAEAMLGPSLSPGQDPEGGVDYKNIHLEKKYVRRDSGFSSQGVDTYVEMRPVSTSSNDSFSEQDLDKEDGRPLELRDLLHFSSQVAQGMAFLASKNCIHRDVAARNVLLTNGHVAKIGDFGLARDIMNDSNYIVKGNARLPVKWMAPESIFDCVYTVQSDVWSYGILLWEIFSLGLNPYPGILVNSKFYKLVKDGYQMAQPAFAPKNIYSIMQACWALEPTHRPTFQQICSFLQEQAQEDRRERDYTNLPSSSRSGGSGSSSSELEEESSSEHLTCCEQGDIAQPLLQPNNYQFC
Effect on: enzyme activity
Mode: inhibitor
Tested at: 0.5 µM
Reference: control
Endpoint: remaining activity
C[C@@H](N)[C@H]1CC[C@H](C(=O)Nc2ccncc2)CC1: 97%
Nc1nc(Nc2ccc(S(N)(=O)=O)cc2)nn1C(=S)Nc1c(F)cccc1F: 10.6%
O=C1NC(=O)/C(=C/c2ccc3c(c2)OC(F)(F)O3)S1: 106%
O=C(c1ccccc1)c1ccc(N2CCOCC2)cc1O: 99.7%
N#CC(c1ccnc(NCCc2cccnc2)n1)c1nc2ccccc2s1 (stereo not shown): 99.2%
CC(C)n1cnc2c(Nc3cccc(Cl)c3)nc(NCCO)nc21: 94.8%
FC(F)(F)c1ccc(/C=C/c2nc(COc3ccc(CCCCn4ccnn4)cc3)co2)cc1: 103%
CC(C)(C)c1nc2c3cc[nH]c(=O)c3c3cc(F)ccc3c2[nH]1: 93%
CC(C)N(CCC(=O)c1ccc2ccccc2c1)Cc1ccccc1: 98.6%
c1cc(-c2cnn3cc(-c4ccc(OCCN5CCCCC5)cc4)cnc23)ccn1: 19.8%
CNc1cc2c(Nc3cccc(Br)c3)ncnc2cn1: 100%
CCCCc1c(-c2ccc(O)cc2)[nH]c2nccnc12: 38.4%
CCN(CC)CCCCN1c2ccccc2Oc2ccc(Cl)cc21: 97.8%
NC(=O)c1cccc(-c2cc(Nc3ccc(OC(F)(F)F)cc3)ncn2)c1: 94.1%
O=C(O)/C=C/c1cc(Br)c(Br)c(Br)c1Br: 99%
N#C/C(=C(/N)SC1C=CC=CC1)c1cccc(C(O)c2ccncc2)c1 (stereo not shown): 101%
NC(=O)c1ccc(-c2nc(-c3ccc4c(c3)OCCO4)c(-c3ccccn3)[nH]2)cc1: 98%
